Experimental data gathered from unrelated publications.
Each line is one published result; not all experiments were run side by side. ± gives the spread as reported. Where no end group is shown, it is not given here.
SLC10A1: Hepatic sodium/bile acid cotransporter (SLC10A1, Homo sapiens, UniProt Q14973)
CXCR4: C-X-C chemokine receptor type 4 (CXCR4, Homo sapiens, UniProt P61073)
Protein farnesyltransferase: Protein farnesyltransferase (Homo sapiens, UniProt P49354+P49356)
ALB: Albumin (ALB, Homo sapiens, UniProt P02768)
Enoyl-[acyl-carrier-protein] reductase [NADPH] FabI: Enoyl-[acyl-carrier-protein] reductase [NADPH] FabI (Staphylococcus aureus, UniProt Q6GI75)
UGT1A9: UDP-glucuronosyltransferase 1A9 (UGT1A9, Homo sapiens, UniProt O60656)
T1: DNA:RNA hybrid triplex, strand 1 RNA, strand 2 DNA; chain A; chain T
T2: RNA aptamer; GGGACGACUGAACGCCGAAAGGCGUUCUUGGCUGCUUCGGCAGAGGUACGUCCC
B1: side-chain stapled; chain AACSFRINSLCG (also: sidechain bridge or staple (positions not given here))

Substance | target | test | system | setting | scale | endpoint | value
O=[N+]([O-])c1ccc(OP(=O)(O)O)cc1 | PTPN1 (Homo sapiens, UniProt P18031) | substrate | – | pH 7.4, catalytic domain | – | kcat | 18 ± 1 s⁻¹
Cc1ccc(C(=O)Nc2ccc3ccccc3c2)o1 | Otop1 (Mus musculus, UniProt Q80VM9, I239A) | whole-cell patch-clamp | – | concentration not given, pH 6.0 | relative to: wild type | effect on acid-evoked current | decreased
CC(C)[C@H]1CC[C@H](C(=O)N[C@H](Cc2ccccc2)C(=O)O)CC1 | SLC10A1 | inhibitor | HEK293 expressing NTCP | 100 µM, 5 min, added: taurocholate 10 µM | relative to: no compound | taurocholate uptake | 62 ± 1.4%
CNc1ncnc2c1ncn2[C@@H]1O[C@H](COP(=O)(O)OP(=O)(O)OP(=O)(O)O)[C@@H](O)[C@H]1O.N.N.N.N | Uracil nucleotide/cysteinyl leukotriene receptor, short isoform (GPR17, Homo sapiens, UniProt Q13304, R283I) | frontal affinity chromatography-MS | mutated receptor IAM column | concentration not given | relative to: wild type column | breakthrough time change | 10.6%
c1cc(CN2CCCC2)ccc1CN1CCCC1 | CXCR4 | binding, competition binding | MDA-MB-231 | semi-quantitative screen, added: biotinylated TN14003 | – | lowest effective concentration | 1000 nM
NC[C@@H]1O[C@H](O[C@H]2[C@@H](O)[C@H](O[C@@H]3[C@@H](O)[C@H](N)C[C@H](N)[C@H]3O[C@H]3O[C@H](CN)[C@@H](O)[C@H](O)[C@H]3N)O[C@@H]2CO)[C@H](N)[C@@H](O)[C@@H]1O | T1, DNA:RNA hybrid triplex, strand 1 RNA, strand 2 DNA | UV melting | – | 20 µM, NaCl 18 mM, no triplex without ligand | – | melting temperature | 53.2 °C
CLGL | Protein farnesyltransferase | enzyme activity, substrate, fluorimetric | peptide | 3 µM, 30 min, added: 9 µM farnesyl diphosphate | relative to: dansyl-GCVLS (set to 1.0) | relative fluorescence increase | 0
CSCCNc1nc(SCCC(F)(F)F)nc2c1ncn2[C@@H]1O[C@H](COP(=O)([O-])OP(=O)([O-])C(Cl)(Cl)P(=O)([O-])[O-])[C@@H](O)[C@H]1O.[Na+].[Na+].[Na+].[Na+] | GPR17 (Homo sapiens, UniProt Q13304) | frontal affinity chromatography-MS | immobilized on IAM column | 1 µM, compound mixture | – | breakthrough time | 24.6 min
CC[C@H](C)[C@H](NC(=O)[C@H](CC(C)C)NC(=O)[C@H](CCCNC(=N)N)NC(=O)[C@H](Cc1c[nH]cn1)NC(=O)[C@@H](NC(=O)[C@H](CCCNC(=N)N)NC(=O)[C@@H]1CCCN1C(=O)[C@@H](NC(=O)[C@H](CCC(N)=O)NC(=O)CN)C(C)C)[C@@H](C)O)C(=O)N[C@H](C(=O)N[C@@H](CC(C)C)C(=O)N[C@@H](C)C(=O)N[C@@H](CC(=O)O)C(=O)N[C@@H](Cc1c[nH]cn1)C(=O)N[C@@H](C)C(=O)N[C@@H](CS)C(=O)N[C@@H](CCC(N)=O)C(=O)N[C@H](C(=O)N[C@H](C(=O)N[C@H](C(=O)N[C@@H](CCC(N)=O)C(=O)N[C@@H](CC(=O)O)C(=O)N[C@@H](Cc1ccccc1)C(=O)N[C@@H](C)C(=O)N[C@@H](CCCNC(=N)N)C(=O)O)[C@@H](C)O)[C@@H](C)CC)[C@@H](C)CC)[C@@H](C)O | NR1D1 (Homo sapiens, UniProt P20393) | NCoR peptide binding, competitor, TR-FRET | – | 1 h, added: labelled NCoR 2040-2065 peptide | relative to: mutant over wild-type peptide | IC50 fold change | 229
O=C(CCn1c2ccccc2c2ccc(Cl)cc21)N(c1ccc(F)cc1)c1ccc(F)cc1 | Proteasome subunit alpha type-2/Proteasome subunit alpha type-6, 20S proteasome (Homo sapiens, UniProt P25787+P60900) | proteolysis, activator, fluorogenic peptide | purified 20S proteasome | up to 30 µM, added: Suc-LLVY-AMC, Z-LLE-AMC, Boc-LRR-AMC | relative to: vehicle | maximum fold increase | 4.5
COc1ccc(/C=C/c2ccc(B(O)O)cc2)cc1 | ALB | fluorescence quenching, van't Hoff | – | concentration not given | – | binding enthalpy | -1.39 kcal/mol
Cc1cc(NC(=O)c2cccc(NC(=O)/C=C/CN(C)C)c2)ccc1Nc1nccc(-c2cccnc2)n1 | PIK3C3 (Homo sapiens, UniProt Q8NEB9) | ATP-biotin probe labeling, KiNativ | A-375 | 1 µM, 3 h, second of two sites | – | inhibition | 6.4%
CN(Cc1cccc(F)c1)Cc1cccc(CN(C)Cc2cccc(F)c2)n1 | CXCR4 | binding, competition binding | MDA-MB-231 | semi-quantitative screen, added: biotinylated TN14003 | – | lowest effective concentration | > 1000 nM
CCCCCc1ccc(Oc2ccccc2)c(O)c1 | Enoyl-[acyl-carrier-protein] reductase [NADPH] FabI | enzyme activity, inhibitor, progress curve kinetics | – | – | – | dissociation rate constant | 0.2 h⁻¹
B1 | DPP9 (Homo sapiens, UniProt Q86TI2) | enzyme activity | – | 200 µM, 37 °C | relative to: FAPα over DPP9 | selectivity ratio | 13 fold
CLIL | Protein farnesyltransferase | enzyme activity, substrate, fluorimetric | peptide | 3 µM, 30 min, added: 9 µM farnesyl diphosphate | relative to: dansyl-GCVLS (set to 1.0) | relative fluorescence increase | < 0.05
CCOC(=O)CC1C(C(=O)OCC)=C(N)Oc2ccc(-c3cc(OC)cc(OC)c3)cc21 (stereo not shown) | ATP2A1 (Oryctolagus cuniculus, UniProt P04191) | Ca2+-dependent ATPase activity | rabbit SR vesicles | 30 µM, unit not given, added: varied Ca2+ | relative to: control | Vmax | 0.4 ± 0.01

Substance | target | test | system | setting | scale | endpoint | value
C[C@H](NC(=O)[C@H](Cc1ccccc1)NC(=O)[C@@H](NC(=O)[C@H](CCC(=O)O)NC(=O)[C@H](C)NC(=O)[C@H](CCCNC(=N)N)N(C)C(=O)[C@@H]1CCCN1C(=O)[C@H](CCCNC(=N)N)NC(=O)CNC(=O)c1ccc2c(c1)C1(OC2=O)c2ccc(O)cc2Oc2cc(O)ccc21)[C@@H](C)O)C(=O)N[C@@H](CCC(=O)O)C(=O)NCC(N)=O | AKT1 (Homo sapiens, UniProt P31749) | substrate, CE-LIF | – | 25 µM, pH 7.0, 30 °C, enzyme 6 nM, added: ATP 1 mM | – | time to half phosphorylation | 679 min
O=c1cc(-c2cccc(O)c2)oc2cc(O)c(O)cc12 | UGT1A9 | substrate | – | pH 7.4, 37 °C | – | Vmax | 2330 pmol/mg/min
C[C@H]1O[C@H](O[C@H]2[C@H](O)[C@@H](O)[C@@H](O[C@H]3[C@H](O)[C@@H](O)C(O)O[C@@H]3CO)O[C@@H]2CO)[C@H](O)[C@@H](O)[C@@H]1N[C@H]1C=C(CO)[C@@H](O)[C@H](O)[C@H]1O (stereo partly shown) | SLC10A1 | inhibitor | HEK293 expressing NTCP | 100 µM, 5 min, added: taurocholate 10 µM | relative to: no compound | taurocholate uptake | 99.7 ± 4.9%
CC(C)=CCC/C(C)=C/CC/C(C)=C/CC/C(C)=C/CO | Alcohol dehydrogenase 1 (Adh1, Rattus norvegicus, UniProt P06757) | substrate | – | 50 µM, pH 7.4, added: 2 mM NAD+ | – | dehydrogenase activity | 0.45 U/mg
CSFL | Protein farnesyltransferase | enzyme activity, substrate, fluorimetric | peptide | 3 µM, 30 min, added: 9 µM farnesyl diphosphate | relative to: dansyl-GCVLS (set to 1.0) | relative fluorescence increase | 0
O=C1C=CC(=O)C=C1 | Reaction center protein M chain, QA site (pufM, Cereibacter sphaeroides, UniProt P0C0Y9) | P+QA- formation, flash absorbance at 605 nm | Cereibacter sphaeroides, QA-depleted reaction centers | pH 8.0, 22 °C, oxidized quinone at QA site, weakest binder, uncertain | – | binding free energy | -3.54 kcal/mol
CCC(C)n1ncn(-c2ccc(N3CCN(c4ccc(OCC5COC(Cn6cncn6)(c6ccc(Cl)cc6Cl)O5)cc4)CC3)cc2)c1=O (stereo not shown) | SLC10A1 | inhibitor | NTCP-HEK293 | 25 µM | relative to: without compound | taurocholate uptake | 81.8 ± 5.6%
CC(C)CC[C@@H](O)[C@](C)(O)[C@H]1CC[C@@]2(O)C3=CC(=O)[C@@H]4C[C@@H](O)[C@@H](O)C[C@]4(C)C3=CC[C@]12C | Ecdysone receptor, with ultraspiracle (EcR, Drosophila melanogaster, UniProt P34021) | photoaffinity ligand, [3H]ponasterone A binding | – | 100 nM, UV irradiation 350 nm, 20 min | – | covalent blocking efficiency | > 70%
COc1ccc([C@@H]2Sc3ccccc3N(CCN(C)C)C(=O)[C@@H]2OC(C)=O)cc1 | SLC10A1 | inhibitor | HEK293 expressing NTCP | 100 µM, 5 min, added: taurocholate 10 µM | relative to: no compound | taurocholate uptake | 87.5 ± 5.9%
CN(C)c1ccc2c(-c3ccc(C(=O)O)cc3C(=O)[O-])c3ccc(=[N+](C)C)cc-3oc2c1 | T2, RNA aptamer | fluorescence quenching titration | – | pH 7.5, 25 °C, NaCl 15 mM, no Mg2+ | – | Kd | 233 nM
CC(=O)N[C@@H](Cc1ccccc1)C(=O)N[C@@H](Cc1ccccc1)C(=O)N[C@@H](COP(=O)(O)O)C(=O)N1CCC[C@H]1C(=O)N[C@@H](CCCNC(=N)N)C(N)=O | Peptidyl-prolyl cis-trans isomerase NIMA-interacting 1, PPIase domain (PIN1, Homo sapiens, UniProt Q13526) | 13C CPMG relaxation dispersion, measured: P4-Cα and F1-Cα | – | – | – | minor state population | ~1%
O=C(/C=C/c1ccccc1)c1ccccc1O | UGT1A9 | substrate | – | pH 7.4, 37 °C | – | Vmax | 1010 pmol/mg/min
CCSL | Protein farnesyltransferase | enzyme activity, substrate, fluorimetric | peptide | 3 µM, 30 min, added: 9 µM farnesyl diphosphate | relative to: dansyl-GCVLS (set to 1.0) | relative fluorescence increase | 0
CC[C@H](C)C(=O)O[C@H]1C[C@@H](C)C=C2C=C[C@H](C)[C@H](CC[C@@H]3C[C@@H](O)CC(=O)O3)[C@H]21 | SLC10A1 | inhibitor | HEK293 expressing NTCP | 100 µM, 5 min, added: taurocholate 10 µM | relative to: no compound | taurocholate uptake | 74.7 ± 3.2%
O=c1ccn([C@@H]2O[C@H](CO[P@@](=O)(O)O[P@@](=O)(O)OP(=O)(O)O)[C@@H](O)[C@H]2O)c(=O)[nH]1 (stereo in doubt) | ALB | binding, native ESI-FT-ICR MS | – | 3 µM, saturation curve | – | bound fraction | 0.836 ± 0.018
Oc1ccccc1Oc1ccccc1 | Enoyl-[acyl-carrier-protein] reductase [NADPH] FabI | enzyme activity, inhibitor, progress curve kinetics, measured: NADPH | – | – | – | Ki | 18.9 ± 1.05 nM
CCCCCCCCCCCC(=O)O | chemosensory protein 1 (Chilo suppressalis, UniProt V9PY22) | binding, competitive ligand, fluorescence competitive binding | – | highest concentration tested, pH 7.4, protein 2 µM, added: 1-NPN 2 µM | relative to: no ligand | remaining 1-NPN fluorescence | 73.9 ± 2.72%

For quick reference, copied from above:
Substance | target | test | system | setting | scale | endpoint | value
B1 | DPP9 (Homo sapiens, UniProt Q86TI2) | enzyme activity | – | 200 µM, 37 °C | relative to: FAPα over DPP9 | selectivity ratio | 13 fold
CC(C)CC[C@@H](O)[C@](C)(O)[C@H]1CC[C@@]2(O)C3=CC(=O)[C@@H]4C[C@@H](O)[C@@H](O)C[C@]4(C)C3=CC[C@]12C | Ecdysone receptor, with ultraspiracle (EcR, Drosophila melanogaster, UniProt P34021) | photoaffinity ligand, [3H]ponasterone A binding | – | 100 nM, UV irradiation 350 nm, 20 min | – | covalent blocking efficiency | > 70%
CLIL | Protein farnesyltransferase | enzyme activity, substrate, fluorimetric | peptide | 3 µM, 30 min, added: 9 µM farnesyl diphosphate | relative to: dansyl-GCVLS (set to 1.0) | relative fluorescence increase | < 0.05
